Measured values from different studies.
Each numbered part is a random draw from the data of one study; scales do not carry over between parts. Positions count from the first letter of the parent shown.

Series 1
Target: RING finger protein unkempt homolog, zinc fingers 1-6, GST-SBP tag (UNK, Homo sapiens, UniProt Q9C0B0, residues 30-357)
Method: RNA Bind-n-Seq
Form: RNA
Matrix: in vitro
Tested at: not given
Setting: RNA with constant flanks, human-mouse chimeric sites, ends assumed
Baseline: input RNA pool
Direction: higher = stronger binding
Quantity: bound/input enrichment
Constant ends, left off below: GGGAGUUCUACAGUCCGACGAUC … CAACAGAGGAUUGAGCAUCA
Construct (chain): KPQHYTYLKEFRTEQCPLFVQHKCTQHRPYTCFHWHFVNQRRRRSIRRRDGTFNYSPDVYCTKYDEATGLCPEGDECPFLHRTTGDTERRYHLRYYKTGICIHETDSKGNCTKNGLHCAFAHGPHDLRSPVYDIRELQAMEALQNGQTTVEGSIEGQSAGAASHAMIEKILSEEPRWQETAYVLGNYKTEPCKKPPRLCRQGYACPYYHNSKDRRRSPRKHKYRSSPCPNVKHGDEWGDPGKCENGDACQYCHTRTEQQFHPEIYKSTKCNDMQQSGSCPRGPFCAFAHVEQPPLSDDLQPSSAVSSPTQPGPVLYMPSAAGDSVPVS
UAAGUUAUUUUGUACAGCUUUGUAAAUUCUUAACAUUUUUAUAUUGCCAUGUUUAUUUUGUUUGGGUGCUUUAUUAAAUUAAGUACAUAGCUAAGGUACAUCUUUCAUUUUUCAGUAAUU: 1.77 ratio
UCCCUGUUGCUGAAUAAUGAUUUGUGAAAGAAGUUUUUCCAAGCUGUAACCCAUGCUGUUAUUAUAGUUGCUGCAAAAUGUUCUUCCUGAUAUUGAUUUUAUUUGUUAACUGAAGGUCUC: 0.246 ratio
AAAGUGAUGACUAUGUUUGUCCAACGACAGGUAUUUUCGGAGAGCAAAGAUGAGAUUGCUUUAGUCCUCUAUGGCACAGAUGGCACUGACAAUCCCCUUGCUGGCAAGGACCAGUAUCAG: 0.178 ratio
UCAAGGGGGCACUGCAGAGCCAUGCCUUUCCUUGACAUACAGAAAAAGCUGGGCAUCAGCCUGGACCGGCACUUUAUGUUCCUAAGCGCAGAACAGCCCUAUAAGAAGGCUGGUCGAUGC: 0.082 ratio
GAUCUCGGGCCCUCCCCAGGGGCCUCCUUUCGUAUAGUCACUGCUUCUGCAUCAGAUACUUUCAGCUGCAACUCCCUGCAGGGUGGGGCACCCAUUUCAGGCAGAAGGUUUUGGUACCCU: 0.222 ratio
UACUCAACUUUCUUGCCACAUUUUGAAUUCCAAGACAUUAUUCCUCCAGAUGACUUCCUAACGAGUGAUGAAGAGCAAGAUUCCGUUUUAUUUGGAAGUUUGAGAGGACAAGUUGUUGGA: 0.14 ratio
AUUGUUGAAGCGAAUCCACUUUUAGAAGCAUUUGGAAAUGCAAAGACUGUUCGCAACAAUAAUAGCAGUCGAUUUGGAAAAUUUGUAGAAAUACAUUUUAAUGAAAAGAGUUCGGUUGUU: 0.296 ratio
AAAGAGAAAGCUAAAACACUAAUAGAGAAGAGGAUUGGCAAAGAGAAUUUCAUAGAGAAACUAGGAUUUAUUAGCAAAACAUGAGUUUAUUCCAGAGCGUCUCAGAAACCCCAGCCAAAC: 11.2 ratio
GAUCAUGAACCACCAUCAGAAAUGAAGAUGAGAUUACCCAAGACGAGCAAAACAGCUGCGCUACAGAAAAGUAAACUUAACCUUGCAGAGUUCCUUAAUGAAGAUACAAGUUAAGAGAGC: 0.324 ratio
AAUUUCCUGUCAUACUUUUUAGACAUUCACAUCAGACUUACAGAGCACCUGGCCACAUUCUAGUUUUGUGUUAUUUCUCAGCUAUGGAUAUGAUCAAAUGAGAACACUGCUUAACUAAUG: 0.428 ratio
UUCAAAGAAAAGGGCAGCUGUGUCAUUUCAUAAGUAACUCUGGGGGAGGGAAAUUCUGUUCUUUUGUUUUUAGUUUUCCCAAAUGAAGCCAAAGUGUGUGUUGAAGAAGGAAGAAUGAAU: 0.4 ratio

Series 2
Target: Interferon regulatory factor 5, full length, phosphomimetic (IRF5, Homo sapiens, UniProt Q13568-2, residues 1-514, S451D/S453D/S456D/S462D)
Method: protein-binding microarray
Form: double-stranded DNA, one strand shown
Matrix: in vitro
Tested at: 940 nM top
Setting: 60-bp whole probe
Together with: salmon DNA 0.4 mg/ml
Baseline: random background probes
Direction: higher = stronger binding
Quantity: fitted relative affinity
Constant ends, left off below: GCCTAGCAC … GTCTTGATTCGCTTGACGCTGCTG
TCACCTCTAGGAATGTAACTGTGCTAG: -0.11 z-score
TTAGGTAACGACTTTCGGTTAGTGCTA: 3.18 z-score
GACGATCTGGGGACTGGAGACGTGCTA: 0.09 z-score
TTAGGACTGGGGTATCGGTGAGTGCTA: 1.55 z-score
GACGGTATCGACTTTCGGGCCGTGCTA: 4.01 z-score
GATGATCTCAGTCTCGAGACGTGCTAG: 1.64 z-score
TTAGATATCAGCCTCGATTAGTGCTAG: -0.158 z-score
GACGATATCAGTCTCGACACGTGCTAG: 1.27 z-score
TAAGGACTGGACACTGGGTTAGTGCTA: -0.287 z-score
TTGGGTATCGGACTGGGTTAGTGCTAG: 2.93 z-score
TCATCTCTGCTTGTGTCACTGTGCTAG: 0.808 z-score
TTAGGTTTCGCGTTTCGGTTAGTGCTA: 6.11 z-score
TTAGGTGTCGGTATCGGTTAGTGCTAG: 4.38 z-score
TAGAAACTCGTGTTTTTCTCCGTGCTA: 0.415 z-score
GACGCTTTCGGTTCCGGGACGTGCTAG: 6.35 z-score
TTAGGTAACCTTATCCTTTAGTGCTAG: -0.501 z-score
TTAGGACTGCTTAACCTTTAGTGCTAG: -0.205 z-score
TCATTTTTCAAGAAACAGACTGTGCTA: -0.0646 z-score
TTAGGTATCCTTCACCTTTAGTGCTAG: 0.608 z-score
GACGCTCTCGGTATCGGGACGTGCTAG: 4.8 z-score
AACGGACTGGACTATCGGGACGTGCTA: -0.24 z-score
TTAGATATCGGGTTTCGATGAGTGCTA: 4.27 z-score
TCAATTCCCTTTCTCAAACTGTGCTAG: 1.44 z-score
TTAGGACTGGACTTACGGTTAGTGCTA: -0.413 z-score
GACAGACTGCTTCTCCTGACGTGCTAG: 0.00965 z-score

Series 3
Target: PABPC1L2, full length, GST fusion (mouse, UniProt A0ABA7IW68)
Method: RNAcompete
Form: RNA
Matrix: in vitro
Tested at: 20 nM
Setting: 7-mer, probes averaged, single round
Baseline: mean of 7-mers
Direction: higher = stronger binding
Quantity: 7-mer Z-score
Residues (chain): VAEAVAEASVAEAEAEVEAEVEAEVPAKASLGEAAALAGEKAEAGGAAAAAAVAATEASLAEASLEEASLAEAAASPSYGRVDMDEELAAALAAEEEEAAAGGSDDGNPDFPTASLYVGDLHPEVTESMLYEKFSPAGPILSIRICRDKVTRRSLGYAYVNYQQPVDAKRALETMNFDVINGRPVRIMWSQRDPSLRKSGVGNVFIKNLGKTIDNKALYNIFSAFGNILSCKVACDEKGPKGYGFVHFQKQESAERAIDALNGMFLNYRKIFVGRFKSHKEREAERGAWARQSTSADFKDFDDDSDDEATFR
AGUGCUA: 0.102
AUCAACG: -0.217
AGAUAGU: -0.24
GAUACAC: -0.121
UAUCGUU: -0.378
GUCAUUC: -0.309
AGACACC: -0.278
GCUUUGC: -0.387
AUGUGAA: 0.0533
CCUCACA: -0.195
GGUGCUA: -0.021
UUUAACG: -0.19
UUUUAUG: 0.215
UUACCGU: -0.17
AAGUGGA: 0.43
AAAUAGU: 1.56
CCGACAG: -0.113

Series 4
Target: CCNE1, cyclin fold, Cln2 fusion (human)
Method: yeast growth competition, sequencing
Matrix: yeast
Setting: strong parent motif
Baseline: not given
Direction: higher = stronger binding
Quantity: normalised enrichment score
Starting sequence: GMNC docking peptide (human); KNAKRNLSSEFAN
S8P: 0.0402
F11P: -0.199
K4R: 1.97
A12F: 0.876
S9L: 1.88
R5I: 0.211
S9E: 1.45
A3R: -0.119
R5L: 0.18
R5G: -0.144
F11Y: 0.155
R5N: 0.039
S8F: 2.51
N6R: 0.817
A3H: 0.429
F11S: 0.482
L7I: 0.247
K4Y: 0.366
R5Y: 0.425
L7D: 0.382
N2Q: 1.38
N6S: 0.367
A3N: 0.141
A12Q: 1.1
N6I: 0.314

Series 5
Substance: BRCA1 RING domain (UniProt P38398)
Method: yeast two-hybrid
Matrix: yeast
Setting: mostly zero background
Baseline: not given
Direction: higher = stronger interaction
Quantity: lacZ reporter activity
UBE2D1 UBC core domain (UniProt P51668): 0
BIRC6 UBC core domain (UniProt Q9NR09): 0
UBE2L3 UBC core domain (UniProt P68036): 0
UBE2E3 UBC core domain (UniProt Q969T4): 0
UBE2J2 UBC core domain (UniProt Q8N2K1): 2400
UBE2G1 UBC core domain (UniProt P62253): 0
UBE2C UBC core domain (UniProt O00762): 0
UBE2S UBC core domain (UniProt Q16763): 0
UBE2M UBC core domain (UniProt P61081): 0
UBE2I UBC core domain (UniProt P63279): 0
UBE2J1 UBC core domain (UniProt Q9Y385): 0
UBE2O UBC core domain (UniProt Q9C0C9): 0
UBE2T UBC core domain (UniProt Q9NPD8): 0
UBE2R2 UBC core domain (UniProt Q712K3): 0
UBE2B UBC core domain (UniProt P63146): 0
UBE2Q1 UBC core domain (UniProt Q7Z7E8): 0
UBE2Z UBC core domain (UniProt Q9H832): 0

Excerpt of the above (series 5):
BIRC6 UBC core domain (UniProt Q9NR09): 0
UBE2J2 UBC core domain (UniProt Q8N2K1): 2400
UBE2R2 UBC core domain (UniProt Q712K3): 0
UBE2J1 UBC core domain (UniProt Q9Y385): 0
UBE2M UBC core domain (UniProt P61081): 0
UBE2B UBC core domain (UniProt P63146): 0
UBE2Q1 UBC core domain (UniProt Q7Z7E8): 0
UBE2I UBC core domain (UniProt P63279): 0
UBE2L3 UBC core domain (UniProt P68036): 0
UBE2S UBC core domain (UniProt Q16763): 0
UBE2G1 UBC core domain (UniProt P62253): 0
UBE2C UBC core domain (UniProt O00762): 0
UBE2Z UBC core domain (UniProt Q9H832): 0
UBE2E3 UBC core domain (UniProt Q969T4): 0
UBE2T UBC core domain (UniProt Q9NPD8): 0
